Experimental data gathered from unrelated publications.
Lines come from different studies, so protocols differ. ± marks the error that the study gave.
PPO3: PPO3 (Agaricus bisporus, UniProt C7FF04)
Chain of UniProt C7FF04 (whole entry, looked up): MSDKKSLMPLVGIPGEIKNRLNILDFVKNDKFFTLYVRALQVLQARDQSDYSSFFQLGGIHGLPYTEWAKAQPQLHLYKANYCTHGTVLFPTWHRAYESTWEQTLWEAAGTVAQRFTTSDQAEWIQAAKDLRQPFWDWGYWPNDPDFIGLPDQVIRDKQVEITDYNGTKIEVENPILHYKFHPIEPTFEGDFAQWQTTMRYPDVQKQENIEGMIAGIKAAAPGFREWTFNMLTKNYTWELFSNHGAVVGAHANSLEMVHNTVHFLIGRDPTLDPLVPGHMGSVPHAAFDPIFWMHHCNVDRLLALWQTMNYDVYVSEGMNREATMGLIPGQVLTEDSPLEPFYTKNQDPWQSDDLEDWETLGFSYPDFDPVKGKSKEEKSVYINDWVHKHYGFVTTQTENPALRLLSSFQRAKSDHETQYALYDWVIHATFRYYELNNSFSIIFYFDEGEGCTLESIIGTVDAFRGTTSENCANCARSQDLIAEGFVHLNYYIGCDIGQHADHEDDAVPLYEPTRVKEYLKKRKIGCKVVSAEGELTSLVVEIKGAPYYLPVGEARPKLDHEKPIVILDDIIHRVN
T1: dsDNA, mismatch bulge, abasic at position 8; chain GATGATANAAGACAT; chain ATGTCTTCTATCATC
T2: DNA hairpin, hairpin, TTTT loop; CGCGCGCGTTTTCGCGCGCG
Chain of UniProt Q8I5R7 (whole entry, looked up): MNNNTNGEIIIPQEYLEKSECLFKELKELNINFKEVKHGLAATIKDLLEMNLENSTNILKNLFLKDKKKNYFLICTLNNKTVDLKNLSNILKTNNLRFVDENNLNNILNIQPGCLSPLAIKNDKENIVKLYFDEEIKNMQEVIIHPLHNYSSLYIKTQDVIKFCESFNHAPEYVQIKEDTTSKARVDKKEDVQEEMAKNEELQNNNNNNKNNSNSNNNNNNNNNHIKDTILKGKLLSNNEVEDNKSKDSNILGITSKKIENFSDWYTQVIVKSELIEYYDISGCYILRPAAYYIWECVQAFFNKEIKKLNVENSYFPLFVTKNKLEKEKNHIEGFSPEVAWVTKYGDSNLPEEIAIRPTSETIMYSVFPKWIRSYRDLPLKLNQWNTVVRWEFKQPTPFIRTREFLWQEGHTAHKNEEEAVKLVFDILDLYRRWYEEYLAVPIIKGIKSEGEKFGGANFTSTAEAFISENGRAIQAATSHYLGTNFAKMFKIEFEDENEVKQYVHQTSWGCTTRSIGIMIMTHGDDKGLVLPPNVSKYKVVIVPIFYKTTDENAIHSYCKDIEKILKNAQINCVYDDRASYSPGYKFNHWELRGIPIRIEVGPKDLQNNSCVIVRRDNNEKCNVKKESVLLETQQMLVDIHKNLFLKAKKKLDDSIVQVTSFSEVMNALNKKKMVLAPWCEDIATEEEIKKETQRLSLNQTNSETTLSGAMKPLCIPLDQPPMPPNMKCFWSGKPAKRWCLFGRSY
Chain of UniProt P60900 (whole entry, looked up): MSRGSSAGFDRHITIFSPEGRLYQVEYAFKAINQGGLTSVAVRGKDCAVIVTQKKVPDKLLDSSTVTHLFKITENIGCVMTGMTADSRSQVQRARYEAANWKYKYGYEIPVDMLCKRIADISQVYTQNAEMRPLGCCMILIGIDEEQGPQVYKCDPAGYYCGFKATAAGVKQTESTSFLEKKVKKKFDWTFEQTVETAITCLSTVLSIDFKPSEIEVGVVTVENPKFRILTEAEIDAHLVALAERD
Chain of UniProt P10997 (whole entry, looked up): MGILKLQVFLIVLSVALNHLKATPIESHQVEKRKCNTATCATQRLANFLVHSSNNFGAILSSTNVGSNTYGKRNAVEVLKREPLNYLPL
Chain of UniProt P04228 (whole entry, looked up): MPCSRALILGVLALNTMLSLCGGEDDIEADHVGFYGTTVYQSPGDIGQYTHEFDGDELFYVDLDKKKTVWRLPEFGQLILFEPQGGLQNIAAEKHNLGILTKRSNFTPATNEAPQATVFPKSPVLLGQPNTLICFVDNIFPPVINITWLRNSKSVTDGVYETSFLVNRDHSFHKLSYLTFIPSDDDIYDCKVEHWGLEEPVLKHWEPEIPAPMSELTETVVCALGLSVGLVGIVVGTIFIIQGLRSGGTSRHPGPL
Chain of UniProt Q13951 (whole entry, looked up): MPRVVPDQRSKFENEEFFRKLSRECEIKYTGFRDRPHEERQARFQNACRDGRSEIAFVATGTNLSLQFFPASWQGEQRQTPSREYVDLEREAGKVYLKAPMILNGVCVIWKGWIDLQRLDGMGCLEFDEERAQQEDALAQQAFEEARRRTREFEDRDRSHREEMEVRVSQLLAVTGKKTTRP
Chain of UniProt Q04609 (whole entry, looked up): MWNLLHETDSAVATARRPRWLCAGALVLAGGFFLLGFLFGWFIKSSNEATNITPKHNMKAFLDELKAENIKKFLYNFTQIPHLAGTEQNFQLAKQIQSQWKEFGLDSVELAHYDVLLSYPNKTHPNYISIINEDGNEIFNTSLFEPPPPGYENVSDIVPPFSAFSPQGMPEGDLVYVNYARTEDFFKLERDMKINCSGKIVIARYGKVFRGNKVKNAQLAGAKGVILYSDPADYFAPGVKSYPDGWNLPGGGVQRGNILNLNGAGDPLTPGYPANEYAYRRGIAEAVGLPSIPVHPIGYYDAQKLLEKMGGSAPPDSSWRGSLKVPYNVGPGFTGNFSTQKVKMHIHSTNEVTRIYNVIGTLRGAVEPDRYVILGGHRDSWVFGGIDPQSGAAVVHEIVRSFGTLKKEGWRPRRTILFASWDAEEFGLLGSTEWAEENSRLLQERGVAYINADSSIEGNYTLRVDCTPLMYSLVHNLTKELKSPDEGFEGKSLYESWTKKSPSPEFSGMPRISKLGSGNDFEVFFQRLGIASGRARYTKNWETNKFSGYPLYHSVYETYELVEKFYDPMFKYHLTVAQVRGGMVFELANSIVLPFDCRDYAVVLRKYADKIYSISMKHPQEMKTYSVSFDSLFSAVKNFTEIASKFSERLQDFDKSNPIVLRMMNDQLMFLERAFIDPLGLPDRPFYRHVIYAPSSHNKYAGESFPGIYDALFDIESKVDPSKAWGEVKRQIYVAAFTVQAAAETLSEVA
Chain of UniProt P25787 (whole entry, looked up): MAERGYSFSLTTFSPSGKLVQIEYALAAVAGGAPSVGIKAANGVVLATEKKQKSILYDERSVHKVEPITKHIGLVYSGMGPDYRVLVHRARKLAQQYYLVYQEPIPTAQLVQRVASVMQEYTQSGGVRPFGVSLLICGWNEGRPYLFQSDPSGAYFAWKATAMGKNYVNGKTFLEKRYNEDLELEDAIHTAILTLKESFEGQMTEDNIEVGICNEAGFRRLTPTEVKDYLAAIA
Chain of UniProt P02699 (whole entry, looked up): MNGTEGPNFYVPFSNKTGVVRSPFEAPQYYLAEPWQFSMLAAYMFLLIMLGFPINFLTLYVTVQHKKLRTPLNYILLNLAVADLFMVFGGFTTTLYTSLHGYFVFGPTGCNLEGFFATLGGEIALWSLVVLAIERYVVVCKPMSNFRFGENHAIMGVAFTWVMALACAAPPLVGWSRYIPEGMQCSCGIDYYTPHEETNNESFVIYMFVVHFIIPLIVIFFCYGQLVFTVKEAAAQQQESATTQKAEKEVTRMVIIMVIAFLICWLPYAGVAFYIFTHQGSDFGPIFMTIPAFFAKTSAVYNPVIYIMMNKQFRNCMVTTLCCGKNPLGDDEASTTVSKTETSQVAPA
Chain of UniProt P32239 (whole entry, looked up): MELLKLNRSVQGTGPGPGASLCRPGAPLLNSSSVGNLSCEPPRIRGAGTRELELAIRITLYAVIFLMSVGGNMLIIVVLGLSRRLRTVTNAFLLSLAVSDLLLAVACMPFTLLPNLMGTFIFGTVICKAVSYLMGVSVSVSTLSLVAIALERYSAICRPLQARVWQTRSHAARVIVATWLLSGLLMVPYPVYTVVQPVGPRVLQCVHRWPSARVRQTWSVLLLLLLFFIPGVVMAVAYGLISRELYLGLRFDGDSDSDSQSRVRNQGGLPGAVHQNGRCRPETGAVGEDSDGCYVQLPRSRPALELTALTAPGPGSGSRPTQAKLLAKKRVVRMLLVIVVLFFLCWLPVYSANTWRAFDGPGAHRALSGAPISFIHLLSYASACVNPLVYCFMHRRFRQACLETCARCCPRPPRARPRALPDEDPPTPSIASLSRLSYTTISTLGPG
Chain of UniProt Q6UWW8 (whole entry, looked up): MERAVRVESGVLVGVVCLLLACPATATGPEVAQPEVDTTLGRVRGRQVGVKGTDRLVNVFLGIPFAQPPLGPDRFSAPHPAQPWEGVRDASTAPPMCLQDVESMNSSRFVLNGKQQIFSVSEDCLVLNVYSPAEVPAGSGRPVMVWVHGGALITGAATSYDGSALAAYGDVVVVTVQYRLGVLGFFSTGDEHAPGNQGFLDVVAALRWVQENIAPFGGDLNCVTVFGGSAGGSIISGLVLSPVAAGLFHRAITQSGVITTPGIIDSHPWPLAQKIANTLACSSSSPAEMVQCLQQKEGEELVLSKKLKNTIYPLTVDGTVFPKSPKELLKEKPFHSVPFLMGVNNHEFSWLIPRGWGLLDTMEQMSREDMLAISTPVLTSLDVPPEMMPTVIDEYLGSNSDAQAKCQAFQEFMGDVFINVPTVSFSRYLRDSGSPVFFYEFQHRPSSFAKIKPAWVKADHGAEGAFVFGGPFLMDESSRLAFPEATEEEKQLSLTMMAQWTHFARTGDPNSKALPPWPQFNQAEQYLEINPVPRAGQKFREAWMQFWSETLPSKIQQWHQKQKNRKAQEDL

With CN(C)CCCNc1nc2cc(N)ccc2nc1NCc1ccccc1 the Kd was 860 nM (T1, dsDNA, mismatch bulge, abasic at position 8; fluorescence quenching titration; pH 7.0, 25 °C).
N=C(N)NCCC[C@H](NC(=O)[C@@H](N)CS)C(=O)N[C@@H](CC(N)=O)C(=O)N[C@@H](CC(N)=O)C(=O)O gave a remaining activity of 51.6% (PPO3; enzyme activity, inhibitor; 100 µM).
For FC(F)(F)Oc1ccc2[nH]c(-c3ccc(OCCN4CCOCC4)cn3)nc2c1, RUNX1 binding read “decreased” (Core-binding factor subunit beta, with RUNX1 (Homo sapiens, UniProt Q13951); co-immunoprecipitation, inhibitor; SEM; 10 µM, 6 h).
CCOC(=O)[C@H](CCCNC(N)=O)NC(=O)[C@H](Cc1c[nH]c2ccccc12)NC(=O)[C@@H]1CCCCN1C(=O)[C@H](Cc1ccccc1)N(C)C(=O)CCl: “concentration for maximal engagement” 10 µM (Peptidyl-prolyl cis-trans isomerase NIMA-interacting 1 (PIN1, Homo sapiens, UniProt Q13526); PaTu 8988t; 5 h, added: BJP-DTB probe).
With NS(=O)(=O)c1ccc(-n2nc(C(F)(F)F)cc2-c2ccc(F)cc2F)cc1 the IC80 was 133 µM (Prostaglandin G/H synthase 1 (Canis lupus familiaris, UniProt Q8HZR1); TXB2 formation, inhibitor; clotting dog whole blood; 1 h, 37 °C).
With [Ru+2].[Ru+2].c1cnc2c(c1)c1nc(-c3ccc(OCCOCCOCCOc4ccc(-c5nc6c7cccnc7c7ncccc7c6[nH]5)cc4)cc3)[nH]c1c1cccnc12.c1cnc2c(c1)ccc1cccnc12.c1cnc2c(c1)ccc1cccnc12.c1cnc2c(c1)ccc1cccnc12.c1cnc2c(c1)ccc1cccnc12 the Kd was 1200 nM (T2, DNA hairpin, hairpin, TTTT loop; BLI; pH 7.04, Na+ 100 mM).
The degradation of Cc1ncsc1-c1ccc([C@@H]2CCCCNC(=O)C[C@@H]3N=C(c4ccc(cc4)OCCCCC(=O)N[C@@H](C(C)(C)C)C(=O)N4C[C@H](O)C[C@H]4C(=O)N2)c2c(sc(C)c2C)-n2c(C)nnc23)cc1 is reported as 17% (Bromodomain-containing protein 4, short isoform (BRD4, Homo sapiens, UniProt O60885); degrader, immunoblotting, measured: BRD4 short isoform; PC-3; 10 nM, 24 h).
The ΔG of COc1cc(CC(=O)O)ccc1O is reported as -6.02 ± 0.12 kcal/mol (p-hydroxyphenylacetate 3-hydroxylase, reductase component (C1-hpah, Acinetobacter baumannii, UniProt Q6Q271); ITC; pH 7).
Under “maximum fold increase”, O=C(Cn1ccc2ccccc21)N(c1ccc(F)cc1)c1ccc(F)cc1 is recorded as 4.4 ± 1.2 (Proteasome subunit alpha type-2/Proteasome subunit alpha type-6, 20S proteasome (Homo sapiens, UniProt P25787+P60900); proteolysis, activator, fluorogenic peptide; purified 20S proteasome; up to 30 µM, added: Suc-LLVY-AMC, Z-LLE-AMC, Boc-LRR-AMC; baseline: vehicle).
CCCCCCCC(=O)Nc1ccc(N(C)C)nc1C gave a specific activity of < 1 pmol/min/µg (Carboxylesterase 3 (CES3, Homo sapiens, UniProt Q6UWW8); substrate; 50 µM, pH 8, 37 °C, enzyme purity 3%).
For CC(=O)Nc1ncc(CN2CC[C@H](Oc3cccc([18F])n3)C[C@@H]2C)s1, “time to stable VT” read 110 min (Protein O-GlcNAcase (OGA, Homo sapiens, UniProt O60502); PET; human, brain; concentration not given, VT 90% of 3-h value).
NC(=O)c1cccc(CN(C(=O)NC(CN2CCCCC2)c2ccccc2)C(CN2CCCCC2)c2ccccc2)c1 (stereo not shown) has a bias factor of 1.3 (Kappa-type opioid receptor (OPRK1, Homo sapiens, UniProt P41145); Gi signalling).
With CN(C)c1ccc(-c2cc3cc(I)ccc3o2)cn1 the Bmax was 7130 ± 943 pmol/mg protein (Islet amyloid polypeptide, aggregated (IAPP, Homo sapiens, UniProt P10997); saturation binding).
For Cc1cccc(C)c1NC(=O)CC(C)NCc1cccc2ccccc12 (stereo not shown), the Hill coefficient was 1.2 ± 0.2 (Sodium channel protein type 4 subunit alpha (SCN4A, Homo sapiens, UniProt P35499, F1586C); phasic block of sodium current, whole-cell patch clamp; HEK293; 10 Hz stimulation).
Cn1nc(C(=O)NCc2ccc(C(=O)O)cc2)cc1-c1ccc2[nH]c(C(=O)O)cc2c1 — result for enzyme activity: “inactive” (Collagenase 3 (MMP13, Homo sapiens, UniProt P45452); inhibitor, FRET; concentration not given, catalytic domain).
CCN(CC)C(=O)c1ccc(O)c(OC)c1 — result for “bound ligand fraction”: 0.28 mol % (Heat shock protein HSP 90-alpha, N-terminal domain (HSP90AA1, Homo sapiens, UniProt P07900); binding, ligand-observed NMR titration; ligand to protein ratio 272).
CC[C@H](C)[C@H](NC(=O)[C@H](CCCCN)NC(=O)[C@H](CCCCN)NC(=O)[C@@H](NC(=O)[C@H](CCC(=O)O)NC(=O)[C@H](CCC(=O)O)NC(=O)[C@H](CCC(=O)O)NC(=O)[C@H](CO)NC(=O)[C@H](CC(C)C)NC(=O)[C@H](C)NC(=O)[C@H](CC(C)C)NC(=O)CNC(=O)[C@H](CCCNC(=N)N)NC(=O)[C@H](CC(C)C)NC(=O)[C@H](CO)NC(=O)CNC(=O)CNC(=O)CNC(=O)CCCC[C@@H]1SC[C@@H]2NC(=O)N[C@@H]21)C(C)C)C(=O)N[C@@H](CC(C)C)C(=O)N[C@@H](CC(=O)O)C(=O)N[C@@H](CCC(=O)O)C(=O)N[C@H](C(=O)N[C@H](C(=O)N[C@@H](CCCCN)C(=O)N[C@@H](CC(=O)O)C(=O)O)C(C)C)[C@@H](C)CC has a Kd ratio of 4.3 (Fab B11 antibody (human); binding, biolayer interferometry; baseline: alanine mutant over wild type).
Cc1cc(N2CC[C@@](C#N)(C3CC3)C2=O)cc(NC(=O)Cc2ccccc2)n1 has a melting temperature of 67.9 °C (Proline--tRNA ligase (Plasmodium falciparum, UniProt Q8I5R7); thermal shift; no substrate).
CCC(C)/C=C/C(C)=C\C=C\C(C)=C\C=O (stereo not shown) gave a melting temperature of 67.9 °C (Rhodopsin, apoprotein (opsin) (RHO, Bos taurus, UniProt P02699); regenerated pigment stability, thermal shift, BFC probe; ROS disk membranes).
For CCCC[C@H](NC(=O)COCC(=O)NCCCOCCOCCOCCCNC(=O)CNC(=O)[C@@H]1CCCN1C(=O)CNC(=O)[C@@H]1CCCN1C(=O)CNC(=O)[C@@H]1CCCN1C(=O)CNC(=O)[C@@H]1CCCN1C(=O)CNC(=O)[C@@H]1CCCN1C(=O)CNC(=O)[C@@H]1CCCN1C(=O)CNC(=O)[C@@H]1CCCN1C(=O)CNC(=O)[C@@H]1CCCN1C(=O)CNC(=O)[C@@H]1CCCN1C(=O)CNC(=O)[C@@H]1CCCN1C(=O)CNC(=O)[C@@H]1CCCN1C(=O)CNC(=O)[C@@H]1CCCN1C(=O)CNC(=O)[C@@H]1CCCN1C(=O)CNC(=O)[C@@H]1CCCN1C(=O)CNC(=O)[C@@H]1CCCN1C(=O)CNC(=O)[C@@H]1CCCN1C(=O)CNC(=O)[C@@H]1CCCN1C(=O)CNC(=O)[C@@H]1CCCN1C(=O)COCC(=O)NCCCOCCOCCOCCCNC(=O)[C@H](Cc1c[nH]c2ccccc12)NC(=O)[C@H](CCCNC(=N)N)NC(=O)[C@@H](Cc1ccccc1)NC(=O)[C@H](Cc1c[nH]cn1)NC(=O)[C@H](CCC(=O)O)NC(=O)[C@H](CCCC)NC(=O)[C@H](CO)NC(C)=O)C(=O)NCC(=O)N[C@@H](Cc1c[nH]c2ccccc12)C(=O)N[C@@H](CCCC)C(=O)N[C@@H](CC(=O)O)C(=O)N[C@@H](Cc1ccccc1)C(N)=O, the IC50 ratio was 2 fold (CCKBR/MC4R (Homo sapiens, UniProt P32239+P32245); bivalent binding; cells expressing CCK2R and MC4R; added: Eu-DTPA-CCK-8; baseline: single- over dual-expressing cells).
With CC(C)C[C@H](NC(=O)[C@H](CC(C)C)NC(=O)[C@H](CCCNC(=N)N)NC(=O)[C@@H](N)CS)C(=O)O the remaining activity was 82% (PPO3; enzyme activity, inhibitor; 25 µM).
For CCCC[C@H](NC(C)=O)C(=O)N[C@@H](CO)C(=O)N[C@H](C(=O)N1CCC[C@H]1C(=O)N[C@]1(C)CCCCCCC=CCCC[C@@](C)(C(=O)N[C@@H](Cc2ccccc2)C(=O)N[C@@H](CCCCN)C(=O)N[C@@H](CCCNC(=N)N)C(=O)N[C@@H](CC(C)C)C(=O)N[C@@H](CCC(N)=O)C(N)=O)NC(=O)[C@H](CCCNC(=N)N)NC(=O)[C@H](CCCC)NC(=O)[C@H](CC(C)C)NC(=O)[C@H](CCCNC(=N)N)NC(=O)[C@H](CCCNC(=N)N)NC(=O)[C@H](CCCNC(=N)N)NC1=O)[C@@H](C)O, “UBA1-ubiquitin thioester formation” read “no effect” (Ubiquitin-like modifier-activating enzyme 1 (UBA1, Homo sapiens, UniProt P22314); inhibitor).
For O=C([O-])CN(CCN(CC(=O)[O-])Cc1cc(CCC(=O)NCCCCCC(=O)NCCCC[C@H](NC(=O)N[C@@H](CCC(=O)O)C(=O)O)C(=O)O)ccc1O)Cc1cc(CCC(=O)O)ccc1[O-].[68Ga+3], “tumour-to-normal tissue ratio” read 11.3 ± 10.7 (Glutamate carboxypeptidase 2 (FOLH1, Homo sapiens, UniProt Q04609); PET/CT; prostate cancer patients, bone metastases; baseline: bone metastases over liver).
CC(C)C[C@H](NC(=O)CNC(=O)[C@@H](NC(=O)[C@H](Cc1ccc(OP(=O)(O)O)cc1)NC(=O)[C@@H](NC(=O)[C@H](C)NC(=O)[C@H](CC(=O)O)NC(=O)CNC(=O)CNC(=O)CNC(=O)[C@@H](N)CS)C(C)C)[C@@H](C)O)C(=O)N[C@@H](CC(N)=O)C(=O)N[C@H](C(=O)N[C@@H](CCCNC(=N)N)C(=O)N[C@@H](CC(N)=O)C(=O)N[C@@H](CCC(N)=O)C(=O)N[C@@H](CCC(=O)O)C(=O)N[C@H](C(=O)N[C@@H](Cc1ccc(OP(=O)(O)O)cc1)C(=O)N[C@@H](CCC(=O)O)C(=O)N[C@H](C(=O)N[C@@H](CC(C)C)C(=O)N[C@@H](CCCCN)C(=O)NCC(=O)O)[C@@H](C)O)[C@@H](C)O)[C@@H](C)O has a competing concentration of 40 µM (Tyrosine-protein kinase CSK (CSK, Homo sapiens, UniProt P41240); binding, bead pulldown western blot; DG-75 cell lysate; added: ITAM peptide beads; lowest concentration reducing signal).
The IC50 of CSCC[C@H](NC(=O)[C@H](CCCNC(=N)N)NC(=O)[C@H](CCSC)NC(=O)[C@H](CCC(N)=O)NC(=O)[C@H](CO)NC(=O)[C@@H](NC(=O)[C@@H]1CCCN1)C(C)C)C(=O)N[C@@H](C)C(=O)N[C@H](C(=O)N1CCC[C@H]1C(=O)N[C@@H](CC(C)C)C(=O)N[C@@H](CC(C)C)C(=O)N[C@@H](Cc1ccccc1)C(=O)N[C@@H](CCCNC(=N)N)C(=O)N1CCC[C@H]1C(=O)O)[C@@H](C)O is reported as 80 µM (MHC class II I-A g7 (Mus musculus, UniProt P04228+Q31135); competition binding; soluble protein; pH 7.4, NOD mouse protein, added: biotinylated transferrin peptide).
